Measured values collected from several papers.
Protocols differ between the studies behind these lines. Several values in a cell are separate wells, animals, samples, runs or records. Numbers after ± are the reported error. Where no end group is shown, it is not given here. Ends that are not written are not given here. No end group written: not given here. [ ]: non-standard residue; d: D form. *: point of attachment.
IKBKG 2-419 C11A/C76A/C95A/C131A/C167A: IKBKG 2-419 C11A/C76A/C95A/C131A/C167A (Homo sapiens, UniProt Q9Y6K9)
B1: LPHN3 OLF 199-495 A313S (Mus musculus, UniProt Q80TS3); sequence looked up; chain KVFLCPGLLKGVYQSEHLFESDHQSGAWCKDPLQASDKIYYMPWTPYRTDTLTEYSSKDDFIAGRPTTTYKLPHRVDGTGFVVYDGALFFNKERTRNIVKFDLRTRIKSGEAIISNANYHDTSPYRWGGKSDIDLAVDENGLWVIYATEQNNGKIVISQLNPYTLRIEGTWDTAYDKRSASNAFMICGILYVVKSVYEDDDNEATGNKIDYIYNTDQSKDSLVDVPFPNSYQYIAAVDYNPRDNLLYVWNNYHVVKYSLDFGPLDSRSGPVHHGQVSYISPPIHLDSELERPPVRGI
B2: ASB9 35-252 (Homo sapiens, UniProt Q96DX5); sequence looked up; chain SDWSPMHEAAIHGHQLSLRNLISQGWAVNIITADHVSPLHEACLGGHLSCVKILLKHGAQVNGVTADWHTPLFNACVSGSWDCVNLLLQHGASVQPESDLASPIHEAARRGHVECVNSLIAYGGNIDHKISHLGTPLYLACENQQRACVKKLLESGADVNQGKGQDSPLHAVARTASEELACLLMDFGADTQAKNAEGKRPVELVPPESPLAQLFLER
B3: FLRT3 LRR domain 29-357 (Homo sapiens, UniProt Q9NZU0); sequence looked up; chain KSCPSVCRCDAGFIYCNDRFLTSIPTGIPEDATTLYLQNNQINNAGIPSDLKNLLKVERIYLYHNSLDEFPTNLPKYVKELHLQENNIRTITYDSLSKIPYLEELHLDDNSVSAVSIEEGAFRDSNYLRLLFLSRNHLSTIPWGLPRTIEELRLDDNRISTISSPSLQGLTSLKRLVLDGNLLNNHGLGDKVFFNLVNLTELSLVRNSLTAAPVNLPGTNLRKLYLQDNHINRVPPNAFSYLRQLYRLDMSNNNLSNLPQGIFDDLDNITQLILRNNPWYCGCKMKWVRDWLQSLPVKVNVRGLMCQAPEKVRGMAIKDLNAELFDCKD
B4: UGT1A9 (Homo sapiens, UniProt O60656); chain GKLLVVPMDGSHWFTMRSVVEKLILRGHEVVVVMPEVSWQLGRSLNCTVKTYSTSYTLEDLDREFKAFAHAQWKAQVRSIYSLLMGSYNDIFDLFFSNCRSLFKDKKLVEYLKESSFDAVFLDPFDNCGLIVAKYFSLPSVVFARGILCHYLEEGAQCPAPLSYVPRILLGFSDAMTFKERVRNHIMHLEEHLLCHRFFKNALEIASEILQTPVTEYDLYSHTSIWLLRTDFVLDYPKPVMPNMIFIGGINCHQGKPLPMEFEAYINASGEHGIVVFSLGSMVSEIPEKKAMAIADALGKIPQTVLWRYTGTRPSNLANNTILVKWLPQNDLLGHPMTRAFITHAGSHGVYESICNGVPMVMMPLFGDQMDNAKRMETKGAGVTLNVLEMTSEDLENALKAVINDKSYKENIMRLSSLHKDRPVEPLDLAVFWVEFVMRHKGAPHLRPAAHDLTWYQYHSLDVIGFLLAVVLTVAFITFKCCAYGYRKCLGKKGRVKKAHKSKTH
B5: CPT1A 381-469 W391A (Rattus norvegicus, UniProt P32198); Cy3 label; sequence looked up; chain AALTAADRVPAAKCRQTYFARGKNKQSLDAVEKAAFFVTLDESEQGYREEDPEASIDSYAKSLLHGRCFDRWFDKSITFVVFKNSKIGI
B6: NUP153 895-1475 (Homo sapiens, UniProt P49790); sequence looked up; chain SNSAASSSFKFGVSSSSSGPSQTLTSTGNFKFGDQGGFKIGVSSDSGSINPMSEGFKFSKPIGDFKFGVSSESKPEEVKKDSKNDNFKFGLSSGLSNPVSLTPFQFGVSNLGQEEKKEELPKSSSAGFSFGTGVINSTPAPANTIVTSENKSSFNLGTIETKSASVAPFTCKTSEAKKEEMPATKGGFSFGNVEPASLPSASVFVLGRTEEKQQEPVTSTSLVFGKKADNEEPKCQPVFSFGNSEQTKDENSSKSTFSFSMTKPSEKESEQPAKATFAFGAQTSTTADQGAAKPVFSFLNNSSSSSSTPATSAGGGIFGSSTSSSNPPVATFVFGQSSNPVSSSAFGNTAESSTSQSLLFSQDSKLATTSSTGTAVTPFVFGPGASSNNTTTSGFGFGATTTSSSAGSSFVFGTGPSAPSASPAFGANQTPTFGQSQGASQPNPPGFGSISSSTALFPTGSQPAPPTFGTVSSSSQPPVFGQQPSQSAFGSGTTPNSSSAFQFGSSTTNFNFTNNSPSGVFTFGANSSTPAASAQPSGSGGFPFNQSPAAFTVGSNGKNVFSSSGTSFSGRKIKTAVRRRK

Substance	tested on	test	test system	conditions	how to read	measurement	result
PAKKSEELVAEAHNLSTLLENAIQDTVREQDQAFTALDWSWLQTE (IKBKB 701-745 C716S/S733A (Homo sapiens, UniProt O14920); sequence looked up)	IKBKG 2-419 C11A/C76A/C95A/C131A/C167A	competition with labelled peptide, fluorescence polarisation		pH 7.4		Kd	6.2 nM
NHERF2 fragment (Homo sapiens)	Slc1a3 (Rattus norvegicus, UniProt P24942)	far-Western blot		saturation binding		Kd	196 nM
B1 (LPHN3 OLF 199-495 A313S)	FLRT3 LRR domain 29-386, N-linked glycosylation (Mus musculus, UniProt Q8BGT1)	ITC		pH 7.0, 25 °C, NaCl 150 mM		Kd	19 nM
B2 (ASB9 35-252)	CKB 1-381 (UniProt P12277)	SPR		pH 8.0, NaCl 200 mM, Langmuir model		Kd	2.6 nM
THBS1 fragment (Homo sapiens)	pad-2 40-424 R298K/R299K (Caenorhabditis elegans, UniProt Q8WR51)	ITC		25 °C, with: GDP		Kd	1030 nM
PAKKSEELVAEAHNLSTLLENAIQDTVREADQSFTALDWSWLQTE (IKBKB 701-745 C716S/Q730A (Homo sapiens, UniProt O14920); sequence looked up)	IKBKG 2-419 C11A/C76A/C95A/C131A/C167A	competition with labelled peptide, fluorescence polarisation		pH 7.4		Kd	3.9 nM
ARTK(Me3)QTARKSTGGKAY (histone H3 2-16 (UniProt P68431); not fully specified; K4me3; Me3 = Me3: trimethyl-lysine (trimethylated lysine))	KMT2A 1564-1628 (Homo sapiens, UniProt Q03164)	ITC	peptide	pH 7.2, 25 °C, NaCl 50 mM		Kd	30900 nM
MGDSILSQAEIDALLN (fliM residues 1-16 (Escherichia coli))	cheY 2-129 E89K (Escherichia coli, UniProt P0AE67)	fluorescence titration	peptide	pH 7.0, one-site model		Kd	230000 nM
FGF14 fragment, N-terminal adamantanecarbonyl, Glu tert-butyl ester, C-terminal ethyl ester (Homo sapiens)	SCN8A 1767-1912 (Homo sapiens, UniProt Q9UQD0-1)	SPR				Kd	67300 ± 7300 nM
B3 (FLRT3 LRR domain 29-357)	ADGRL3 20-1447 Y249A/D251A/T252A/E279A/R308A (Homo sapiens, UniProt Q9HAR2)	flow cytometry	HEK293	100 nM, tetramerised, avidity, in cells		Kd	> 10000 nM
{FITC}-SARWRFPARPGTTGGGGGGGRRGLGGAPRQRVPALLLPPGY (KMT2A 4-43 C-A; N-terminal FITC; FITC = O=C1OC2(c3ccc(O)cc3Oc3cc(O)ccc32)c2ccc(NC(=S)*)cc21)	MEN1 T349M (Homo sapiens, UniProt O00255-1)	fluorescence polarisation	peptide			Kd	2.99 nM
B4 (UGT1A9)	COc1cc2ccc(=O)oc2cc1O	steady-state kinetics		pH 7.4, 37 °C		Vmax	0.00106 µmol/min/mg
EPB41 fragment (Homo sapiens)	SLC9A1 residues 506-575 (Rattus norvegicus)	resonant mirror		kinetic analysis		Kd	214 ± 17 nM
[Aib][Aib]IA (Aib = CC(C)(N)C(=O)O)	PC-12	protection from Aβ1–42 toxicity, MTT		concentration not given, 6 h, Aβ to peptide ratio 1:10, with: Aβ1–42 2 µM	baseline: untreated cells	cell viability	91.9%
PAKKSEELVAEAHNLSTLLENAIQDTVREQDQSFTALDWAWLQTE (IKBKB 701-745 C716S/S740A (Homo sapiens, UniProt O14920); sequence looked up)	IKBKG 2-419 C11A/C76A/C95A/C131A/C167A	competition with labelled peptide, fluorescence polarisation		pH 7.4		Kd	85 nM
B5 (CPT1A 381-469 W391A)	Fabp1, Cy5 label (Mus musculus, UniProt P12710)	FRET		24 °C		Kd	3 nM
B6 (NUP153 895-1475)	KPNB1 I178A/F217A/Y255A/I263R/L612D/F688A (Homo sapiens, UniProt Q14974)	ELISA		apparent		Kd	83.2 ± 9.1 nM
{FITC}-PAKKSEELVAEAHNLSTLLENAIQDTVREQDQSFTALDWSWLQTE (IKKβ 701-745 C716S (UniProt O14920); FITC label; FITC = O=C1OC2(c3ccc(O)cc3Oc3cc(O)ccc32)c2ccc(NC(=S)*)cc21; sequence looked up)	IKBKG C11A/C76A/C95A/C131A/C167A (Homo sapiens, UniProt Q9Y6K9)	fluorescence polarisation	peptide	oxidised, with: H2O2 5%		Kd	260 nM
tocilizumab IgG1	FCGRT (Homo sapiens, UniProt P55899)	BLI, SPR				Kd	24.6 nM and 23 nM and 25.3 nM and 26.1 nM
